Measured values collected from several papers.
Parts stem from different laboratories: compare values within a part only.

Set 1
Target: Sal-like protein 4, full length isoform A (SALL4, Homo sapiens, UniProt Q9UJQ4, residues 1-1053)
UniProt Q9UJQ4, sequence (whole entry, looked up): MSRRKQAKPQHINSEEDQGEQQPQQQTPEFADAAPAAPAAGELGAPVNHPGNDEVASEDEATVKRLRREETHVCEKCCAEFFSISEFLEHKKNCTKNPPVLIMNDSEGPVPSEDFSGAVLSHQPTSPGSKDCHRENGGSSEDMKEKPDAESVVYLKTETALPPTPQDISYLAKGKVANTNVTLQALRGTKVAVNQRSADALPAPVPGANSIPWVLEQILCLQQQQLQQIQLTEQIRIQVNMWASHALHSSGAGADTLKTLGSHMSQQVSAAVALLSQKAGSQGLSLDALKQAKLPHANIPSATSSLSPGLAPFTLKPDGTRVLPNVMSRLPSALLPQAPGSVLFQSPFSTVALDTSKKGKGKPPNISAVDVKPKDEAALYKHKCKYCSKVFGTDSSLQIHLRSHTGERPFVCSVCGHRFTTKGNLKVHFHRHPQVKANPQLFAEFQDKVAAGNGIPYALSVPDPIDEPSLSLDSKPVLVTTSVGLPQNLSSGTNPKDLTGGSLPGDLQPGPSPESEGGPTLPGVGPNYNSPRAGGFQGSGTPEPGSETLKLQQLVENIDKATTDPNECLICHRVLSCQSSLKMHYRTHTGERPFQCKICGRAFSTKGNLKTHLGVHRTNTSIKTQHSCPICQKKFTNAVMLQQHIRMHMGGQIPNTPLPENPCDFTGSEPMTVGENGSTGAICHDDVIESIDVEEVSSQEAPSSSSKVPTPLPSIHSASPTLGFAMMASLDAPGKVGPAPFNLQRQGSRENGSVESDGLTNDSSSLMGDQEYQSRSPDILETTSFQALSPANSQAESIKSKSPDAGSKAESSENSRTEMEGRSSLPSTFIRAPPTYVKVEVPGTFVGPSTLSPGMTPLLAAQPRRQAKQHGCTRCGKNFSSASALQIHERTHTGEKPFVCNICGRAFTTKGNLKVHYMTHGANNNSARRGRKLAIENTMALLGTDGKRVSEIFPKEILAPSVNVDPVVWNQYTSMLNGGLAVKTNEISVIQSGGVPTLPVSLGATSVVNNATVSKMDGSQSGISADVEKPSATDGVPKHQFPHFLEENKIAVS
Technique: universal PBM
Form: double-stranded DNA, one strand shown
Sample: in vitro
Concentration: 600 nM
Setting: 8-mer, flanks averaged, mean of replicates
Direction: higher = stronger binding
Measurement: E-score
GCCATCGA: -0.15
GCTAGACC: -0.261
ACCCAGGC: -0.277
ACGAGTGG: -0.0937
CTTGTGTC: -0.131

Set 2
Target: Centromere-binding protein 1, full length, His-tagged (CBF1, Saccharomyces cerevisiae, UniProt P17106, residues 1-351)
UniProt P17106, sequence (whole entry, looked up): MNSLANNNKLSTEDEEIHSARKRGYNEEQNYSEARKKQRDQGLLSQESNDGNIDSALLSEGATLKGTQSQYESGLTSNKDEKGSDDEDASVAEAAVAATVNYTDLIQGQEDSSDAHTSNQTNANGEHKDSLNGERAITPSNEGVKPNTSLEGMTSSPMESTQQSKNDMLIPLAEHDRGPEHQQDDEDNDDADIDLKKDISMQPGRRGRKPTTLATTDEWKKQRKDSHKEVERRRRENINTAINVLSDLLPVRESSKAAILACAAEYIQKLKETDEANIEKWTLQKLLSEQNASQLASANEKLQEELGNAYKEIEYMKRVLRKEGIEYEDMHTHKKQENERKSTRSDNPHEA
Technique: competition protein-binding microarray
Form: double-stranded DNA, one strand shown
Sample: in vitro
Concentration: 2 µM
Setting: whole 60-bp probe, lowest competitor level
With: Pho4 competitor, 0.05 µM
Direction: higher = stronger binding
Measurement: fluorescence intensity
AAATTACTAAGTTGGCTAGTGGGTGACGCCGTATGAGTCTTGATTCGCTTGACGCTGCTG: 81.5 a.u.
TGGAAGTGTGTGAATTTCGTGATGGAATTATTGTCAGTCTTGATTCGCTTGACGCTGCTG: 103 a.u.
TGCGCAACAACTTGGCACGTGTTTTTATGTCTAGAAGTCTTGATTCGCTTGACGCTGCTG: 3430 a.u.
TGATACAAGTCGTCGTCCGTGACGAAGGATCAGGAAGTCTTGATTCGCTTGACGCTGCTG: 91 a.u.

Set 3
Target: Interferon regulatory factor 7, full length, phosphomimetic (IRF7, Homo sapiens, UniProt Q92985, residues 1-503, S101K/S471D/S472D/S475D/S476D/S477D/S483D/S484D/S487D)
Technique: protein-binding microarray
Form: double-stranded DNA, one strand shown
Sample: in vitro
Concentration: 250 nM
Setting: 60-bp whole probe
With: salmon DNA 0.4 mg/ml
Baseline: random background probes
Direction: higher = stronger binding
Measurement: log fluorescence
Shared flanks, not repeated: GCCTAGCAC … GTCTTGATTCGCTTGACGCTGCTG
Construct (chain): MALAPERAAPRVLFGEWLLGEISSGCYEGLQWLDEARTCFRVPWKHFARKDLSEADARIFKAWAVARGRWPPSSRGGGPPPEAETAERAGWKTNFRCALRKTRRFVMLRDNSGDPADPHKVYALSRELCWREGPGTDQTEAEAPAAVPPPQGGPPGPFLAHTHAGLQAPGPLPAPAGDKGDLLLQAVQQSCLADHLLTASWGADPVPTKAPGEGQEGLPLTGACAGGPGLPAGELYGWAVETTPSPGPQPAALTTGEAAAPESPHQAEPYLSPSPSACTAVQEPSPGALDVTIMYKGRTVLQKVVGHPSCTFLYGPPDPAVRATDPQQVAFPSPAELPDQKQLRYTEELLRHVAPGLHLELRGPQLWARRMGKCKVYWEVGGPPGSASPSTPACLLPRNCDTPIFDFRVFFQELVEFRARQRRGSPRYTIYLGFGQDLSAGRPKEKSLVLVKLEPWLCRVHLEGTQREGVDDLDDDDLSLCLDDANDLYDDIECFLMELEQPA
TTAGGTTCCATTTTCCTTTAGTGCTAG: 4.24 z-score
TGAGGTCTCGGTCTCGGTTAGTGCTAG: 1.78 z-score
GACGAACTGAGGACTGGAGACGTGCTA: -0.182 z-score
GACGGTTTCGGTCTCGGAACGTGCTAG: 8.42 z-score
TCACTTTCCACTTGTCTTACTGTGCTA: 3.69 z-score
TTAGGTATCGTCTATCGGTTAGTGCTA: 0.113 z-score

Further values, each from its own experiment
PhoQ, residues 284 288 289 292 302 303 SLANIV
fold induction (PhoP, residues 12 14 15 18 19 TPWLV (Escherichia coli, UniProt P23836); Sort-seq, item: YFP reporter; E. coli; PhoQ-PhoP variant library, with: 10 µM Mg2+; baseline: high Mg2+ state, higher = stronger signaling): 16

A few entries again (further values, each from its own experiment):
PhoQ, residues 284 288 289 292 302 303 SLANIV
fold induction (PhoP, residues 12 14 15 18 19 TPWLV (Escherichia coli, UniProt P23836); Sort-seq, item: YFP reporter; E. coli; PhoQ-PhoP variant library, with: 10 µM Mg2+; baseline: high Mg2+ state, higher = stronger signaling): 16
